{"data": "Published values gathered from unrelated publications", "note": "A part holds a random share of what one study measured.", "UniProt P18825, sequence (whole entry, looked up)": "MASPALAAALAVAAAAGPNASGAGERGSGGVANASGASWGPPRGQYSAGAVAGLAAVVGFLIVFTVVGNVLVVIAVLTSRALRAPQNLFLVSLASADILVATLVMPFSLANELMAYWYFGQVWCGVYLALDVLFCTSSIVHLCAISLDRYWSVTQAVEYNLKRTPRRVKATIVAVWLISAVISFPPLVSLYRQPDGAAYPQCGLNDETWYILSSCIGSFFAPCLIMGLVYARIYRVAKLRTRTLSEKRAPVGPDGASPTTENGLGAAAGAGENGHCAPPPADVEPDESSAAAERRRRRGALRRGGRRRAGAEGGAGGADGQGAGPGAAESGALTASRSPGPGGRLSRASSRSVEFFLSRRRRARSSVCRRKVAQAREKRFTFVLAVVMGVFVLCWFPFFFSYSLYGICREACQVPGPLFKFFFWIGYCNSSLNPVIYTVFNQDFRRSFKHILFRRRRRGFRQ", "UniProt Q9Y2U5, sequence (whole entry, looked up)": "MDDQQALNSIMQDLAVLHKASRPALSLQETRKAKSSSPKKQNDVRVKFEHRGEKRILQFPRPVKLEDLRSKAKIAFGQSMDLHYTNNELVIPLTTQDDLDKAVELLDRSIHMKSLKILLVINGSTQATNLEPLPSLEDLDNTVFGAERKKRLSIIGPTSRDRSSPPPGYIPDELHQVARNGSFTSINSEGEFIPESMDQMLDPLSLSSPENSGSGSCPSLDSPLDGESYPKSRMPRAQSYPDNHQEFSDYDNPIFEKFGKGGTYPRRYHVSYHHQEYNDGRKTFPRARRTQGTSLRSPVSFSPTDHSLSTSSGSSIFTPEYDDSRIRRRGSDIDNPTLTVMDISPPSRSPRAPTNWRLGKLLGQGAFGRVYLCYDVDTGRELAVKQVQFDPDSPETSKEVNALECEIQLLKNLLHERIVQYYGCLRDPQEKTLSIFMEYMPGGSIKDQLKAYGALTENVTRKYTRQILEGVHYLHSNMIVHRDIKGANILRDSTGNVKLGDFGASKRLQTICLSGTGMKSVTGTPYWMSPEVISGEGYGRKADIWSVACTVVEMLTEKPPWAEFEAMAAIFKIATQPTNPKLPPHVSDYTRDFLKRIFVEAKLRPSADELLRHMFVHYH", "UniProt Q5BJF2, sequence (whole entry, looked up)": "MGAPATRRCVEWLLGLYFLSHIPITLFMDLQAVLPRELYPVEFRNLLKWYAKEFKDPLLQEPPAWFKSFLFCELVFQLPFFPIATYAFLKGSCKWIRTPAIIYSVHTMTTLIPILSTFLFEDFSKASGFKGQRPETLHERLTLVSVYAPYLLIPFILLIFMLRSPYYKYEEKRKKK", "UniProt P50406, sequence (whole entry, looked up)": "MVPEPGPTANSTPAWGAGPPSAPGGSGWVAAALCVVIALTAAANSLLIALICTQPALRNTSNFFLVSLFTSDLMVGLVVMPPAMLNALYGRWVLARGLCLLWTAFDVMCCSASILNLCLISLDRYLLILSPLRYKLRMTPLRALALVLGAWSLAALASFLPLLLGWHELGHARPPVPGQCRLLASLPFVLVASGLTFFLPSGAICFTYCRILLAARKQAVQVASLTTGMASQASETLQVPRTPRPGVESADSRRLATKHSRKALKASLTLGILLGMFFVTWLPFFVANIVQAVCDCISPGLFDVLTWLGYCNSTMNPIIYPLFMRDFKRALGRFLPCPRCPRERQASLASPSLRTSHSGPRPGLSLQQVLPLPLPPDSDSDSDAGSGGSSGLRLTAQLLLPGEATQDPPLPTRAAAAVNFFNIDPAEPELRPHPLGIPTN", "UniProt P11362, sequence (whole entry, looked up)": "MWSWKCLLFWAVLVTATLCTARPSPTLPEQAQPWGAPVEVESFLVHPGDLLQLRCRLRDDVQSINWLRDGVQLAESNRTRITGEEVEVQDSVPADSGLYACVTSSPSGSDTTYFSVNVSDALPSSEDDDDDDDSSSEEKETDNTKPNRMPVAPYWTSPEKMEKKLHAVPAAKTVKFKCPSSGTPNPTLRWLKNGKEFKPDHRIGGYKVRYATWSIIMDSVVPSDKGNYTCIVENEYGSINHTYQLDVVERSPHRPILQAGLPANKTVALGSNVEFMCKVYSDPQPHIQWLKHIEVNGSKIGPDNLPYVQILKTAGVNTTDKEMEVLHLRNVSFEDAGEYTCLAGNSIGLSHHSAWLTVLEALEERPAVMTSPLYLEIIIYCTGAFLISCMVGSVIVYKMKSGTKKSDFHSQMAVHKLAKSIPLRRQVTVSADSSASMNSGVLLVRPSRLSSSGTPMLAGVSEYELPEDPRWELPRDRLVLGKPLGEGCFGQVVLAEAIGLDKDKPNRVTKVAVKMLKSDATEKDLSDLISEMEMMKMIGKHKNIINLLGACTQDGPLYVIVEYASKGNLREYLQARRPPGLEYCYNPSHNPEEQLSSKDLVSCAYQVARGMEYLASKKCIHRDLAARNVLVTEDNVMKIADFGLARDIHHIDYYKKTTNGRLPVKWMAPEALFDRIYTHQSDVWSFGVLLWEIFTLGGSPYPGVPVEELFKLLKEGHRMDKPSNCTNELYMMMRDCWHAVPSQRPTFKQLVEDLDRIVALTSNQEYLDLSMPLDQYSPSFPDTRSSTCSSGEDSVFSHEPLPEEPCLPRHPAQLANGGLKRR", "UniProt P13945, sequence (whole entry, looked up)": "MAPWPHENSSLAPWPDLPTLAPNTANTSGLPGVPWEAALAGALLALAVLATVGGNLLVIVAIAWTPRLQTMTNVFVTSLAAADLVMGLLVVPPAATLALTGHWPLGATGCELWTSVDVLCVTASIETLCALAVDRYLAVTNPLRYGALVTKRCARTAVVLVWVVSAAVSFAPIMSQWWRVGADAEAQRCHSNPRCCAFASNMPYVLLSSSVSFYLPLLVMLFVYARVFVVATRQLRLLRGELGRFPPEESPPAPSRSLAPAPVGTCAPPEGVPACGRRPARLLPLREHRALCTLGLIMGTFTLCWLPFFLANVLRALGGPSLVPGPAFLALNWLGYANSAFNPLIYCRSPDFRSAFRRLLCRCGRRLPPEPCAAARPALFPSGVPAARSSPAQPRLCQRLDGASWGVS", "UniProt Q9UM73, sequence (whole entry, looked up)": "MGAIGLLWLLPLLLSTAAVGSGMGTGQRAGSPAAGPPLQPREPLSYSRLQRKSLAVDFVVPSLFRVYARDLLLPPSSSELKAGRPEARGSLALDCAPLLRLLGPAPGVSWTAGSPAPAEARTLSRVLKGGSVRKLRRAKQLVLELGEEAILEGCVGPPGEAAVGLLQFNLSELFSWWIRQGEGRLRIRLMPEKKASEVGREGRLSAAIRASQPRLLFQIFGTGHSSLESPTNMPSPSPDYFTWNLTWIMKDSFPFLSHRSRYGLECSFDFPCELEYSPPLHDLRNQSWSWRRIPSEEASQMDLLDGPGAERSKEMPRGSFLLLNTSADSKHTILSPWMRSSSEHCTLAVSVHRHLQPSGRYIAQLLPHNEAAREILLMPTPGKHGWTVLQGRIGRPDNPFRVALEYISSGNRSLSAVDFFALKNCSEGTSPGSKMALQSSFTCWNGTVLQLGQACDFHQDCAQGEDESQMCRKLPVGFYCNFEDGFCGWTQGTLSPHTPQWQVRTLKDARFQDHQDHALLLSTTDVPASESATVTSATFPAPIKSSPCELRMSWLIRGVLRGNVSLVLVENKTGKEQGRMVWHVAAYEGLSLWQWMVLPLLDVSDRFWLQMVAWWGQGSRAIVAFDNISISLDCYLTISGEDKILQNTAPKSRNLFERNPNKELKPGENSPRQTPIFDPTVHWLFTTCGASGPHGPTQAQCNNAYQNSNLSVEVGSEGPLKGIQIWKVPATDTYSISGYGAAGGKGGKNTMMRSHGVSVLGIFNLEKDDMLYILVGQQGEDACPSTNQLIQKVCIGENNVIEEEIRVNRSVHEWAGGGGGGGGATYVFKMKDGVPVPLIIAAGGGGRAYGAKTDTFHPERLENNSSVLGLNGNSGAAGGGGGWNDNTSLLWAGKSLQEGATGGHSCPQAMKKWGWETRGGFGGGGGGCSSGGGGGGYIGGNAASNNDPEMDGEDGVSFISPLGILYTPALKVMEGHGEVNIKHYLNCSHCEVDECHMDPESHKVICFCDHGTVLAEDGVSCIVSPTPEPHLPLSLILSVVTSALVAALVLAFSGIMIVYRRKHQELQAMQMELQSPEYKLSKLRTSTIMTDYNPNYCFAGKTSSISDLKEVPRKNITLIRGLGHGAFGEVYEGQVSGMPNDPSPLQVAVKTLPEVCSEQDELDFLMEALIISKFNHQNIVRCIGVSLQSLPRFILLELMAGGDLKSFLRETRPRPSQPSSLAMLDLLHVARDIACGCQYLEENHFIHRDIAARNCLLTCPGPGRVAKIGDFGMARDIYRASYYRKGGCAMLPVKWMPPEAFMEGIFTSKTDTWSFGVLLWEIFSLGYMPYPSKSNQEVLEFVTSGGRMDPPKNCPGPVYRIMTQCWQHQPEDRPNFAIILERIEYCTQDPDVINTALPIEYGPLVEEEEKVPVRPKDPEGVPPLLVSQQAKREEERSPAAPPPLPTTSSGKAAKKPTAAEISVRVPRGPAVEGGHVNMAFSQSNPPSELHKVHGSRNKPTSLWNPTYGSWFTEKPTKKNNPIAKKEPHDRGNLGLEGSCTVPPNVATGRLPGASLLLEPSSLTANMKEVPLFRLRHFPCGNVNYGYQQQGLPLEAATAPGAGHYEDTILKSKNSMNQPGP", "UniProt P35348, sequence (whole entry, looked up)": "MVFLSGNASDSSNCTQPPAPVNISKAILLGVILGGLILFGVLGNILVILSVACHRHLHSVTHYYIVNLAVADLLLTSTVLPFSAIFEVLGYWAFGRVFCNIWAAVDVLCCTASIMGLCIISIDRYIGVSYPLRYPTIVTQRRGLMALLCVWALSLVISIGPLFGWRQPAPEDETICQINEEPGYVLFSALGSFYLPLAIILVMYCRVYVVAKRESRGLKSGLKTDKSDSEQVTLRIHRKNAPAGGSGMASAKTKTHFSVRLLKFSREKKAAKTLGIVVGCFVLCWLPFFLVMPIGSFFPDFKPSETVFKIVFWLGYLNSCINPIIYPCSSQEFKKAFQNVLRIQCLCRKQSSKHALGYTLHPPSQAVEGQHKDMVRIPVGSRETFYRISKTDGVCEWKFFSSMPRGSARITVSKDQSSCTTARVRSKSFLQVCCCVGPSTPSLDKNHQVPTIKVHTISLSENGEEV"}
{"data": "Block 1", "cell line": "Huh-7", "concentration": "10 µM", "time": "24 h"}
{"Compound": "C[C@H]1C[C@@H]2[C@H]([C@@H](O)C[C@@]3(C)[C@H]2CC[C@]3(O)C(=O)CO)[C@@]2(C)C=CC(=O)C=C12", "viability": "98.8%"}
{"Compound": "O=C(O)CCc1nc(-c2ccccc2)c(-c2ccccc2)o1", "viability": "102%"}
{"Compound": "O=C1C(CC[S+]([O-])c2ccccc2)C(=O)N(c2ccccc2)N1c1ccccc1 (stereo not drawn)", "viability": "101%"}
{"Compound": "CCC(=O)O[C@]1(C(=O)CCl)[C@@H](C)C[C@H]2[C@@H]3CCC4=CC(=O)C=C[C@]4(C)[C@@]3(F)[C@@H](O)C[C@@]21C", "viability": "97.9%"}
{"Compound": "CN(C)CCC=C1c2ccccc2CCc2ccccc21", "viability": "96.5%"}
{"Compound": "CC(CCc1ccc(O)cc1)NCCc1ccc(O)c(O)c1 (stereo not drawn)", "viability": "103%"}
{"Compound": "CCN(CC)CCNC(=O)c1ccc(NC(C)=O)cc1", "viability": "98%"}
{"Compound": "c1ccc2c(CC3=NCCN3)cccc2c1", "viability": "97.4%"}
{"Compound": "CC1(C)O[C@@H]2C[C@H]3[C@@H]4C[C@H](F)C5=CC(=O)CC[C@]5(C)[C@H]4[C@@H](O)C[C@]3(C)[C@]2(C(=O)CO)O1", "viability": "99.8%"}
{"data": "Block 2", "host": "mouse", "sample": "microsomes or S9", "concentration": "2 µM", "time": "0.5 h"}
{"SMILES": "CCc1cc(Nc2nc(Cl)ncc2OC)n[nH]1", "remaining compound": "45.7%"}
{"SMILES": "CC(C)CNc1oc(/C=C/c2cccs2)nc1C#N", "remaining compound": "0.494%"}
{"SMILES": "O=c1[nH]c2cc(-c3noc(-c4ccc(F)c(F)c4)n3)ccc2n1C1CCCC1", "remaining compound": "67.6%"}
{"SMILES": "Cn1cc(-c2ccc3nnc(C[C@H](O)CO)n3n2)cn1", "remaining compound": "84.5%"}
{"SMILES": "Fc1ccc(-c2cc3nc4c(c(NCC5CCCO5)n3n2)CCCC4)cc1 (stereo not drawn)", "remaining compound": "2.61%"}
{"SMILES": "Cc1cc(C)c(-c2n[nH]cc2-c2nc3ccccc3s2)c(O)c1", "remaining compound": "1.02%"}
{"SMILES": "Nc1nc(-c2ccc(F)cc2)nc2oc(-c3ccccc3)nc12", "remaining compound": "23.4%"}
{"data": "Block 3", "SMILES": "CC(=O)Nc1c(C(C)=O)c(=O)n(C)c2nc(-c3ccc(Cl)cc3Cl)c(-c3ccc(Cl)cc3)cc12", "observed": "cell-free assay", "concentration": "10 µM"}
{"target": "ADRB3 (Homo sapiens, UniProt P13945)", "inhibition [%]": 37.6}
{"target": "ADRB1 (Homo sapiens, UniProt P08588)", "inhibition [%]": -10.5}
{"target": "HTR6 (Homo sapiens, UniProt P50406)", "inhibition [%]": -3.97}
{"target": "ADRA1A (Homo sapiens, UniProt P35348)", "inhibition [%]": -6.63}
{"target": "TMEM97 (Homo sapiens, UniProt Q5BJF2)", "inhibition [%]": 54.6}
{"target": "HTR7 (Homo sapiens, UniProt P34969)", "inhibition [%]": 8.91}
{"target": "ADRA2C (Homo sapiens, UniProt P18825)", "inhibition [%]": 3.44}
{"target": "ADRA1B (Homo sapiens, UniProt P35368)", "inhibition [%]": 17.1}
{"target": "DRD4 (Homo sapiens, UniProt P21917)", "inhibition [%]": 22.7}
{"target": "DRD3 (Homo sapiens, UniProt P35462)", "inhibition [%]": 14.3}
{"target": "CHRM4 (Homo sapiens, UniProt P08173)", "inhibition [%]": 0.711}
{"data": "Block 4", "Compound": "CN1CCN(C(=O)c2ccc(NC(=O)Nc3ccc(N(C)c4ccnc(Nc5ccc(CS(C)(=O)=O)cc5)n4)cc3)cc2)CC1", "concentration": "1 µM"}
{"target": "MAP2K3 (Homo sapiens, UniProt P46734)", "assay": "competitive binding panel, refers to: MEK3", "how to read": "relative to: vehicle", "remaining binding": "14%"}
{"target": "RIOK2 (Homo sapiens, UniProt Q9BVS4)", "assay": "competitive binding panel", "how to read": "relative to: vehicle", "remaining binding": "21%"}
{"target": "ALK (Homo sapiens, UniProt Q9UM73)", "assay": "competitive binding panel", "how to read": "relative to: vehicle", "remaining binding": "76%"}
{"target": "FGFR1 (Homo sapiens, UniProt P11362)", "assay": "competitive binding panel", "how to read": "relative to: vehicle", "remaining binding": "100%"}
{"target": "IKBKE (Homo sapiens, UniProt Q14164)", "assay": "competitive binding", "conditions": "IKK-epsilon", "remaining binding": "38%"}
{"target": "MAP3K2 (Homo sapiens, UniProt Q9Y2U5)", "assay": "competitive binding panel", "how to read": "relative to: vehicle", "remaining binding": "38%"}
